# Measurements pooled from the literature.
# A part holds a random share of what one study measured. Several values in a cell are separate wells, animals, samples, runs or records.
# Chain of UniProt P08254 (whole entry, looked up): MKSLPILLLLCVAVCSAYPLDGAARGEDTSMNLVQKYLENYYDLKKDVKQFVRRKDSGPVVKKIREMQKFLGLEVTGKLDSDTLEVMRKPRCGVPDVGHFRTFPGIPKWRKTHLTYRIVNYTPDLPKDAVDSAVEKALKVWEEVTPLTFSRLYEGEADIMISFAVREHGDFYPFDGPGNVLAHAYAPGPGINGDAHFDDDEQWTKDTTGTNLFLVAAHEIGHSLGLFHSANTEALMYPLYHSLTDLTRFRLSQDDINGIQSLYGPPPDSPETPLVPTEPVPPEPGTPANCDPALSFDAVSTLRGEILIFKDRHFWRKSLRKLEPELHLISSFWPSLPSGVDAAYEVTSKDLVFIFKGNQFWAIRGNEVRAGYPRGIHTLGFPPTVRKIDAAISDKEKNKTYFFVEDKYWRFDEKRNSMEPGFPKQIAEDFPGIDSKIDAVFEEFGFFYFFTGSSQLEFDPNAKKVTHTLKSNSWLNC
# Chain of UniProt P09237 (whole entry, looked up): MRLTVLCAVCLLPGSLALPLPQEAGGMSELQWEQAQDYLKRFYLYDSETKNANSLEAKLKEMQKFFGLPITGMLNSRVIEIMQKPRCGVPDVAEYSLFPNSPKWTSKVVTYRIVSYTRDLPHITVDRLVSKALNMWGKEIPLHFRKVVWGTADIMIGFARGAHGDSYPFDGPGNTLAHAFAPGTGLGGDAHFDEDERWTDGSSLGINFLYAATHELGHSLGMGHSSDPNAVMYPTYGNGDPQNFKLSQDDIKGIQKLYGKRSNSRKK
# Chain of UniProt O14672 (whole entry, looked up): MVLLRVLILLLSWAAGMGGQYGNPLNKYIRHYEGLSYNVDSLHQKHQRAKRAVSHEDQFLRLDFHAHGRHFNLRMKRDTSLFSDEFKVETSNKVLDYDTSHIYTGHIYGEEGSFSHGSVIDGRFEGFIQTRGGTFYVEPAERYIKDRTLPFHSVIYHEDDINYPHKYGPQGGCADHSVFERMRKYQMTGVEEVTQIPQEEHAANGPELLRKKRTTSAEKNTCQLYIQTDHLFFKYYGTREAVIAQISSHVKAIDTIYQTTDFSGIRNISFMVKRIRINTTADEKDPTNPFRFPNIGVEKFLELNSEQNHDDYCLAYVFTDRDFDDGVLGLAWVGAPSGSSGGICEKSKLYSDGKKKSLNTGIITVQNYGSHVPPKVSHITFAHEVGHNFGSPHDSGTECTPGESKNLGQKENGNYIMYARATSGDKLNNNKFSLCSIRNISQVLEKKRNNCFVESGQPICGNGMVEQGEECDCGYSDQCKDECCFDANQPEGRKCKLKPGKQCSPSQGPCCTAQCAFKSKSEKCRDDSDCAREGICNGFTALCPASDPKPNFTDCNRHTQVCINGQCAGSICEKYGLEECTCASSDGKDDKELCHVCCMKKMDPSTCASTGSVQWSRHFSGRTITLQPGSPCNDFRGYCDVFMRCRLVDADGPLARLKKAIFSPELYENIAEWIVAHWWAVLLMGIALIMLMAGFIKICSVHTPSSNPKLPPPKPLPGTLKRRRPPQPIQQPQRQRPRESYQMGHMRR
# Chain of UniProt P78536 (whole entry, looked up): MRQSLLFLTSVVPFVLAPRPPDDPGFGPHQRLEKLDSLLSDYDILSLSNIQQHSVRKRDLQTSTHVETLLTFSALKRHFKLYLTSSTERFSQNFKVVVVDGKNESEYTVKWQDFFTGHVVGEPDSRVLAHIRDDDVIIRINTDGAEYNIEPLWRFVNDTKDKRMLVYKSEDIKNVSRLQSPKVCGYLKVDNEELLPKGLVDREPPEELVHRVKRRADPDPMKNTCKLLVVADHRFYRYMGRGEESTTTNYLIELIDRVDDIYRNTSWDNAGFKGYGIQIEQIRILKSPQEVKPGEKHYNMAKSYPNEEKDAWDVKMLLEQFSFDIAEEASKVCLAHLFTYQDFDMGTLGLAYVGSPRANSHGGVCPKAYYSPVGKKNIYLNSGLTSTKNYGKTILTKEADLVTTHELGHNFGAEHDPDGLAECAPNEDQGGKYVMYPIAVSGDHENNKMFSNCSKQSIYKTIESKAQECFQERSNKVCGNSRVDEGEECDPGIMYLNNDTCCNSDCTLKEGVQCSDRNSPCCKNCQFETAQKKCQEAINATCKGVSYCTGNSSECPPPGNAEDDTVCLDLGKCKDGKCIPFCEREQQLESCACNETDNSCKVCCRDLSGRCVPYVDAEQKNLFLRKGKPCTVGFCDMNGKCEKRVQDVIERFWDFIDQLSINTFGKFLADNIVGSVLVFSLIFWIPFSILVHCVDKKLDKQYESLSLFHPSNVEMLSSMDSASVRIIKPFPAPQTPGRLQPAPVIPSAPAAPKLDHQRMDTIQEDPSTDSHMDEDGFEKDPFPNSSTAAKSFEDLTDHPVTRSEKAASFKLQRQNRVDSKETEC
# Chain of UniProt P39900 (whole entry, looked up): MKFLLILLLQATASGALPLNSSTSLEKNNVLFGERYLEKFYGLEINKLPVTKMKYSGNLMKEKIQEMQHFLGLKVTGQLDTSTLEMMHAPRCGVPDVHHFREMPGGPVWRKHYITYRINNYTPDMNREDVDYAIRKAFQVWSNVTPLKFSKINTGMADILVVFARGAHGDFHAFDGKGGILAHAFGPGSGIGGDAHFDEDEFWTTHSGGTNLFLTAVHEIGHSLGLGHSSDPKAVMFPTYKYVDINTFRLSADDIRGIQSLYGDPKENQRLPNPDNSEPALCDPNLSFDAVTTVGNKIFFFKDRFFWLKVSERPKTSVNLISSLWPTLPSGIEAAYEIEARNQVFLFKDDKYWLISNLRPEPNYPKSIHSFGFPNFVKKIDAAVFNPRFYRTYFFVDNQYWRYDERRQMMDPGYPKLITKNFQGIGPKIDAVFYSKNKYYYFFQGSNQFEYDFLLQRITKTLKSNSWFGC

# Series 1
# SMILES: CC(C)S(=O)(=O)c1ccc2nccc(Nc3ccc4sc(C5CCCC5)nc4c3)c2c1.Cl
# Technique: CCK-8
cell line,setting,survival
L929 RIPK3-/- reexpressing RIPK3 K51A,25 µM,88.6% and 90.4% and 108% and 85.1%
L929 RIPK3-/- reexpressing RIPK3 K51A,12.5 µM,98.9% and 98% and 92.1% and 95.6%
L929 RIPK3-/- reexpressing RIPK3 K51A,"6.25 µM, added: zVAD",102% and 96.8% and 100% and 93.2% and 97.9%
L929 RIPK3-/- reexpressing RIPK3 K51A/R69H,"25 µM, added: zVAD",69.9% and 97.1% and 67.8% and 95.3% and 67.5%
L929 RIPK3-/- reexpressing RIPK3 K51A/R69H,"6.25 µM, added: zVAD",102% and 85.7% and 95.3% and 97.9%
L929 RIPK3-/- reexpressing RIPK3 K51A,50 µM,68.7% and 67.1% and 71.3% and 76.9%

# Series 2
# Target: Calcium/calmodulin-dependent protein kinase type II subunit alpha (CAMK2A, Homo sapiens, UniProt Q9UQM7)
# Chain of UniProt Q9UQM7 (whole entry, looked up): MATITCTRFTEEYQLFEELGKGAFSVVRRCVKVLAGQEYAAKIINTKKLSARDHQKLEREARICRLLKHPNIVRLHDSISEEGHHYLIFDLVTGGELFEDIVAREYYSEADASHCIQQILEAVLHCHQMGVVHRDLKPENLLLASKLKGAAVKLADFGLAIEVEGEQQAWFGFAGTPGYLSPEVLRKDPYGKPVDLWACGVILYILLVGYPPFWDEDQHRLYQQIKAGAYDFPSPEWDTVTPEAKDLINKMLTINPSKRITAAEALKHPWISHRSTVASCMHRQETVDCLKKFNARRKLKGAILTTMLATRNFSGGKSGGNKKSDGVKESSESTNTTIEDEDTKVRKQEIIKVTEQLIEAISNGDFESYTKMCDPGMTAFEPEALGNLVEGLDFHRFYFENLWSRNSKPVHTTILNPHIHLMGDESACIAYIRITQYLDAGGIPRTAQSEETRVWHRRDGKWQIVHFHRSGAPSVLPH
# Effect on: enzyme activity
# Action: inhibitor
# Tested at: 10 µM
SMILES,inhibition
CC(C)c1ccc2c(c1O)CC[C@H]1C3=C(CC[C@]21C)C(=O)OC3,-8%
COc1cc2c(cc1OC)[C@@H]1C(=O)c3ccc4c(c3O[C@@H]1CO2)C[C@H](C(C)C)O4,-50%
CC(C)=CCC/C(C)=C/CC/C(C)=C/Cc1c(O)c2ccccc2oc1=O,-1%
Cc1c(N)nc([C@H](CC(N)=O)NC[C@H](N)C(N)=O)nc1C(=O)N[C@H](C(=O)N[C@H](C)[C@@H](O)[C@H](C)C(=O)N[C@H](C(=O)NCCc1nc(-c2nc(C(=O)NCCC[S+](C)C)cs2)cs1)[C@@H](C)O)[C@@H](O[C@@H]1O[C@@H](CO)[C@@H](O)[C@H](O)[C@@H]1O[C@H]1O[C@H](CO)[C@@H](O)[C@H](OC(N)=O)[C@@H]1O)c1cnc[nH]1,-8%
CCN(CC)CCOC(=O)C(O)(c1ccccc1)c1ccccc1,6%
COc1cc2c(cc1OC)[C@H](C)NCC2,25%
CCN1C[C@]2(C)CC[C@H](OC)[C@@]34C1[C@]1(OCO[C@@]15C[C@H](OC)[C@H]1C[C@]3(O)[C@@H]5[C@H]1OC)[C@@H](OC(C)=O)[C@H]24,-11%
N=C(N)NCCC[C@H](NC(=O)[C@@H]1CCCN1C(=O)[C@@H]1CSSC[C@H](N)C(=O)N[C@@H](Cc2ccc(O)cc2)C(=O)N[C@@H](Cc2ccccc2)C(=O)N[C@@H](CCC(N)=O)C(=O)N[C@@H](CC(N)=O)C(=O)N1)C(=O)NCC(N)=O,-9%

# Series 3
# SMILES: CNC(=O)[C@H](Cc1c[nH]c2ccccc12)NC(=O)[C@@H](CC(=O)NO)CC(C)C
target,IC50
"MMP12 (Homo sapiens, UniProt P39900)",0.198 nM
"ADAM10 (Homo sapiens, UniProt O14672)",755 nM
"ADAM17 (Homo sapiens, UniProt P78536)",38.3 nM
"Collagenase 3 (MMP13, Homo sapiens, UniProt P45452)",0.12 nM
"Matrilysin (MMP7, Homo sapiens, UniProt P09237)",8.16 nM
"Stromelysin-1 (MMP3, Homo sapiens, UniProt P08254)",18.7 nM
"MMP14 (Homo sapiens, UniProt P50281)",0.743 nM

# Series 4
# Cell line: mouse MPNST tumor cells
# Technique: high-content immunofluorescence imaging
# Item: nuclear SOX9
# Tested at: 10 µM
# Time: 12 h
# Notes: mean of 2 replicates
# Baseline: DMSO control
# Reading: higher = more nuclear SOX9
SMILES,nuclear SOX9 intensity
C[C@]12C/C(=C/O)C(=O)C[C@@H]1CC[C@@H]1[C@@H]2CC[C@@]2(C)[C@H]1CC[C@]2(C)O,82.1 % of DMSO
O=C(CCCN1CCC(n2c(=O)[nH]c3ccccc32)CC1)c1ccc(F)cc1,146 % of DMSO
O=C1CCCN1CC#CCN1CCCC1,101 % of DMSO
CCCC(C)C1(CC)C(=O)NC(=O)NC1=O (stereo not drawn),108 % of DMSO
CCN(C)C(=O)Oc1cccc([C@H](C)N(C)C)c1,90.8 % of DMSO and 101 % of DMSO
CN(C)C(=O)Oc1ccc[n+](C)c1,96.3 % of DMSO and 93 % of DMSO
C[C@]12CCC(=O)C=C1C=C[C@@H]1[C@@H]2CC[C@@]2(C)[C@H]1CC[C@@]2(O)CCC(=O)O,106 % of DMSO

# Series 5
# Cell line: HEK-293T/ACE2
# Technique: Hoechst nuclei count
# Tested at: concentration not given
# Time: 16 (unit not given)
# Baseline: vehicle
SMILES,viability [%]
CCc1cc2c(cc1N1CCC(N3CCOCC3)CC1)C(C)(C)c1[nH]c3cc(C#N)ccc3c1C2=O,101
C[Se]CC[C@H](N)C(=O)O,96.9
CC1=NS(=O)(=O)c2cc(Cl)ccc2N1,97.5
Cc1cn([C@@H]2C[C@@H](O)[C@H](CO)O2)c(=O)[nH]c1=O,103
CC(C)n1c(/C=C/C(O)CC(O)CC(=O)O)c(-c2ccc(F)cc2)c2ccccc21 (stereo not drawn),103
COC[C@@H](NC(C)=O)C(=O)NCc1ccccc1,107
COc1cc2nc(N3CCN(C(=O)C4COc5ccccc5O4)CC3)nc(N)c2cc1OC (stereo not drawn),97.8
C[C@H](CCC(=O)NCCS(=O)(=O)O)[C@H]1CC[C@H]2[C@@H]3[C@@H](O)C[C@@H]4C[C@H](O)CC[C@]4(C)[C@H]3CC[C@]12C,105
O=C1C(O)=C([C@H]2CC[C@H](c3ccc(Cl)cc3)CC2)C(=O)c2ccccc21,94.9
C[C@@H](O)[C@H]1C(=O)N2C(C(=O)O)=C(SCCN=CN)C[C@H]12,99.5
COc1ccc(-n2nc(C(N)=O)c3c2C(=O)N(c2ccc(N4CCCCC4=O)cc2)CC3)cc1,98.8
O=P(O)(O)C(O)(Cn1ccnc1)P(=O)(O)O,101
CN(C)/N=N/c1[nH]cnc1C(N)=O,98.3
C/C(O)=C(\C#N)C(=O)Nc1ccc(C(F)(F)F)cc1,90.4
O=C(O)C[C@H](O)C[C@H](O)/C=C/c1c(C2CC2)nc2ccccc2c1-c1ccc(F)cc1,111
Nc1nc(CC(=O)Nc2ccc(CCNC[C@H](O)c3ccccc3)cc2)cs1,107
CC(=O)OCC(CCn1cnc2cnc(N)nc21)COC(C)=O,101
CN(N=O)C(=O)N[C@@H](C=O)[C@@H](O)[C@H](O)[C@H](O)CO,98.7
CC(C[N+](C)(C)C)OC(N)=O (stereo not drawn),100
C[C@H]1CNCCc2ccc(Cl)cc21,96.8
Cc1ccsc1C(=CCCN1CCC[C@@H](C(=O)O)C1)c1sccc1C,97
O=C(O)[C@@H](S)[C@@H](S)C(=O)O,106
COC(=O)N[C@H](C(=O)N1CCC[C@H]1c1nc(-c2ccc(-c3ccc(-c4c[nH]c([C@@H]5CCCN5C(=O)[C@@H](NC(=O)OC)C(C)C)n4)cc3)cc2)c[nH]1)C(C)C,104

# A few entries again (series 5):
SMILES,viability [%]
Nc1nc(CC(=O)Nc2ccc(CCNC[C@H](O)c3ccccc3)cc2)cs1,107
CCc1cc2c(cc1N1CCC(N3CCOCC3)CC1)C(C)(C)c1[nH]c3cc(C#N)ccc3c1C2=O,101
COC(=O)N[C@H](C(=O)N1CCC[C@H]1c1nc(-c2ccc(-c3ccc(-c4c[nH]c([C@@H]5CCCN5C(=O)[C@@H](NC(=O)OC)C(C)C)n4)cc3)cc2)c[nH]1)C(C)C,104
O=C1C(O)=C([C@H]2CC[C@H](c3ccc(Cl)cc3)CC2)C(=O)c2ccccc21,94.9
O=P(O)(O)C(O)(Cn1ccnc1)P(=O)(O)O,101
CN(C)/N=N/c1[nH]cnc1C(N)=O,98.3
